Experimental data of several laboratories.
Protocols differ between the studies behind these lines.

| Structure (SMILES) | matrix | concentration | pH | temperature | notes | absorption maximum |
| --- | --- | --- | --- | --- | --- | --- |
| CN(C)c1ccc(/C=C/c2cc(=O)cc(/C=C/c3ccc(N(C)C)cc3)o2)cc1 | acetonitrile | 10 µM |  | 298 K |  | 417 nm |
| CCN(CC)c1ccc2c(c1)O[B-]1(c3ccccc3C#N)OC(=O)C(c3ccccc3)=N[N+]1=C2 (centres unmarked) | toluene |  |  |  |  | 472 nm |
| COC(=O)c1ccccc1-c1c2ccc(=O)cc-2oc2c1ccc1cccc(N)c12 | aqueous HCl 10% DMSO | 10 to 15 µM | pH 1.9 |  |  | 598 nm |
| O=c1cc(/C=C/c2ccc(N(c3ccccc3)c3ccccc3)cc2)oc(/C=C/c2ccc(N(c3ccccc3)c3ccccc3)cc2)c1 | acetonitrile/water 1:19 v/v | 10 µM |  | 298 K | aggregate nanoparticle suspension | 413 nm |
| CCCCN1C(=O)c2cccc3c(NCCCN4CCOCC4)ccc(c23)C1=O | dioxane |  |  |  |  | 426 nm |
| CCN(CC)c1ccc2c(c1)O[B-]1(c3ccccc3C)OC(=O)C(c3ccccc3)=N[N+]1=C2 (centres unmarked) | toluene |  |  |  |  | 470 nm |
| CC1(C)C(/C=C/C2=C(Cl)C(=C/C=C3/N(CCCCCC(=O)O)c4ccccc4C3(C)C)/C[N+](C)(C)C2)=[N+](CCCCCC(=O)O)c2ccccc21 | water |  |  |  |  | 743 nm |
| CN1CCN(c2ccc(/C=C/c3cc(=O)cc(/C=C/c4ccc(N5CCN(C)CC5)cc4)o3)cc2)CC1 | acetonitrile | 10 µM |  | 298 K |  | 404 nm |
| CCC1=[N+]2N=C(/C=C/C=C/c3ccc(C(F)(F)F)cc3)C(=O)O[B-]2(c2ccccc2)Oc2cc(N(CC)CC)ccc21 (centres unmarked) | toluene |  |  |  |  | 515 nm |
| O=c1cc(/C=C/c2ccc(N3CCCC3)cc2)oc(/C=C/c2ccc(N3CCCC3)cc2)c1 | acetonitrile | 10 µM |  | 298 K |  | 423 nm |
| CCCCN1C(=O)c2cccc3c(NCCCCCCCCN4CCOCC4)ccc(c23)C1=O | methanol |  |  |  |  | 443 nm |
| COC(=O)c1ccccc1-c1c2ccc(=[N+](C)C)cc-2oc2c1ccc1cccc(O)c12 | 12.5 mM aqueous NaOH |  | pH 12.1 |  | 10% DMSO | 632 nm |
| C=Cc1ccccc1[B-]12OC(=O)C(c3ccccc3)=N[N+]1=C(C)c1ccc(N(CC)CC)cc1O2 (centres unmarked) | toluene |  |  |  |  | 470 nm |
| CCCCN1C(=O)c2cccc3c(NCCCCCCCCCCN4CCOCC4)ccc(c23)C1=O | toluene |  |  |  |  | 423 nm |
| O=c1cc(/C=C/c2ccc(N3CCOCC3)cc2)oc(/C=C/c2ccc(N3CCOCC3)cc2)c1 | acetonitrile | 10 µM |  | 298 K |  | 396 nm |
| CCC1=[N+]2N=C(c3ccccc3)C(=O)O[B-]2(c2ccccc2)Oc2cc(OC)ccc21 (centres unmarked) | toluene |  |  |  |  | 425 nm |
| CCCCN1C(=O)c2cccc3c(NCCN4CCOCC4)ccc(c23)C1=O | acetonitrile |  |  |  |  | 430 nm |
